Assay results pooled from the literature.
Each numbered part is a random draw from the data of one study; scales do not carry over between parts.

Block 1 — technique: protein-binding microarray; form: double-stranded DNA, one strand shown; sample: in vitro; tested at: 2540 nM top; notes: 60-bp whole probe; added: salmon DNA 0.4 mg/ml; relative to: random background probes; direction: higher = stronger binding; shared flanks, not repeated: GCCTAGCAC … GTCTTGATTCGCTTGACGCTGCTG
Target: Interferon regulatory factor 3, full length, phosphomimetic (IRF3, Homo sapiens, UniProt Q14653, residues 1-427, S386D/S396D/S398D/S402D/T404D/S405D)
UniProt Q14653, sequence (whole entry, unmodified, looked up): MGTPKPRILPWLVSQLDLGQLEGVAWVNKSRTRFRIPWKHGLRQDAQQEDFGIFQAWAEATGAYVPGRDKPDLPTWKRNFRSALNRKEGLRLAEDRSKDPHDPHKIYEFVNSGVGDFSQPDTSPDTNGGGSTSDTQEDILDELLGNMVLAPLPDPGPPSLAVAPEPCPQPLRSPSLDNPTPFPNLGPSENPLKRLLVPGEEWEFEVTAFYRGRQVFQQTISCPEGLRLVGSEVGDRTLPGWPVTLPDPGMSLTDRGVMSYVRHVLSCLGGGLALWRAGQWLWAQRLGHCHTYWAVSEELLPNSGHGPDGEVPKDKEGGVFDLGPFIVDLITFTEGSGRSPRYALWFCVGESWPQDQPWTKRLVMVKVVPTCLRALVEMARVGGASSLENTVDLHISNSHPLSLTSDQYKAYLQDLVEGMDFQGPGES
`ATAACTTTTTTTTTTCCCTGGTGCTAG` — result for “fitted relative affinity”: 1.06 z-score.
For `TCATTGTTCTCTCTGGCACTGTGCTAG`, “fitted relative affinity” read 0.302 z-score.
For `AAGACCATCCTGTGTCTTAAAGTGCTA`, “fitted relative affinity” read 0.0712 z-score.
`GAGAGTAGCTTTCTGAGGGCGTGCTAG`: “fitted relative affinity” -0.189 z-score.
For `TTAGATTTCAGTTTCGATAAGTGCTAG`, “fitted relative affinity” read 5.74 z-score.
Under “fitted relative affinity”, `TCAAGTTTACCCATCTCCAGGTGCTAG` is recorded as 1.42 z-score.
`CCCTTTTAAGTTCTCTGAAGGTGCTAG` — result for “fitted relative affinity”: 3.23 z-score.
`TTAGGACTGCGTCTCGGTTAGTGCTAG` — result for “fitted relative affinity”: -0.568 z-score.

Block 2 — technique: protein binding microarray; form: double-stranded DNA, one strand shown; sample: in vitro; tested at: not given; relative to: not given; direction: higher = stronger binding
Target: Histone acetyltransferase KAT6A, winged helix 1, GST fusion (KAT6A, Homo sapiens, UniProt Q92794, residues 1-85)
Notes: 8-mer, flanks averaged, mean of 2 arrays, mostly near background
Target sequence (chain): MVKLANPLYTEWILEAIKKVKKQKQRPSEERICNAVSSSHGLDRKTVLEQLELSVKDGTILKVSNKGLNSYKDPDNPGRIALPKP
`ACAATTGA` has an E-score of -0.065.
`AAATGGCG` has an E-score of 0.191.
`CACTTCAC` has an E-score of -0.00291.
The E-score of `AGGCCTTC` is reported as -0.216.
`GACTGCTC` has an E-score of -0.0787.
For `TGAGTAAA`, the E-score was -0.136.
`AGTGCGGG` gave an E-score of 0.163.
`ACTTGTTA` has an E-score of -0.113.
The E-score of `AAAAGTTA` is reported as -0.0294.
`CAATTGGA` has an E-score of -0.121.
`ATCTACTG` has an E-score of -0.106.
The E-score of `ACGTCATG` is reported as -0.0263.

Block 3 — technique: RNAcompete; form: RNA; sample: in vitro; tested at: 20 nM; notes: 7-mer, probes averaged, single round; relative to: mean of 7-mers; direction: higher = stronger binding
Target: PABPC1L2, full length, GST fusion (mouse, UniProt A0ABA7IW68)
Target sequence (chain): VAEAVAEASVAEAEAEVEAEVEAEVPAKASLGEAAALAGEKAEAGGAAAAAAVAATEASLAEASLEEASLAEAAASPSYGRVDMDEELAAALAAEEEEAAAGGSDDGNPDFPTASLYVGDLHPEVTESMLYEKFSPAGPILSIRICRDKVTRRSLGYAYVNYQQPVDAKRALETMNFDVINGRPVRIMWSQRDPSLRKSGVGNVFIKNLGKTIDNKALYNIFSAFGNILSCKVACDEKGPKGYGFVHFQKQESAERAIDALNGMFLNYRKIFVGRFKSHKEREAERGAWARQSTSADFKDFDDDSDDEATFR
With `ACAGGGU` the 7-mer Z-score was 0.167.
For `CACAUGU`, the 7-mer Z-score was -0.269.
`CAUUCUG` has a 7-mer Z-score of -0.307.
With `UCCAUCG` the 7-mer Z-score was -0.28.
For `ACACUUA`, the 7-mer Z-score was 0.0279.
`UACCACG` has a 7-mer Z-score of 0.0932.
For `UAAACUU`, the 7-mer Z-score was 0.476.
The 7-mer Z-score of `AUGGUUC` is reported as -0.229.
The 7-mer Z-score of `CAACGCU` is reported as -0.0935.

Mixed results
The fold induction of `PhoQ, residues 284 288 289 292 302 303 ASHLAV` is reported as 6.96 (PhoP, residues 12 14 15 18 19 VQALL (Escherichia coli, UniProt P23836); Sort-seq, measured: YFP reporter; E. coli; PhoQ-PhoP variant library, added: 10 µM Mg2+; relative to: high Mg2+ state, higher = stronger signaling).
